Assay results from different studies.
Numbered parts are unrelated; each lists some results of a single study. Changes are numbered by the printed parent chain.
Sequence of UniProt P61088 (whole entry, looked up): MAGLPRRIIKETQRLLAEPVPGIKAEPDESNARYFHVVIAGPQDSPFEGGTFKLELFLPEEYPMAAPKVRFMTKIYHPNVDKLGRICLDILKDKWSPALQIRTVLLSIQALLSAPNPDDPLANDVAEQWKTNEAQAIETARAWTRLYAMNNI
Sequence of UniProt P62256 (whole entry, looked up): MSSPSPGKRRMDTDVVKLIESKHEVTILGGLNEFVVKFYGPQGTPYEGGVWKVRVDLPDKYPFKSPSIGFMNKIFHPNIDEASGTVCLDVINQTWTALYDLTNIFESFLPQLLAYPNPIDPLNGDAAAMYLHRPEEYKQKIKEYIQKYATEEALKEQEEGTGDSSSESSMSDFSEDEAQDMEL
Sequence of UniProt P51965 (whole entry, looked up): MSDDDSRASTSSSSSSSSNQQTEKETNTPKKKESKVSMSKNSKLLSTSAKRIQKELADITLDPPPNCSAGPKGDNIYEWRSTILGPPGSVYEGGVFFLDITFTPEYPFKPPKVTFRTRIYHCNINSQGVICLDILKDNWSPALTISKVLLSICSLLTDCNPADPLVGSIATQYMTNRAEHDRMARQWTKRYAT
Sequence of UniProt P61077 (whole entry, looked up): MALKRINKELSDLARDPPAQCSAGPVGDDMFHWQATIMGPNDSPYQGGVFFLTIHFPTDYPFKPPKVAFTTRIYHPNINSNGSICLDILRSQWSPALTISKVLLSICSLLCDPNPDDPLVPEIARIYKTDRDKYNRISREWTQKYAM

Sample 1 — method: competition protein-binding microarray; molecule type: double-stranded DNA, one strand shown; matrix: in vitro; concentration: 2 µM; added: Pho4 competitor, 0.05 µM; reading: higher = stronger binding; constant ends, left off below: … GTCTTGATTCGCTTGACGCTGCTG
Target: Centromere-binding protein 1, full length, His-tagged (CBF1, Saccharomyces cerevisiae, UniProt P17106, residues 1-351)
Sequence of UniProt P17106 (whole entry, looked up): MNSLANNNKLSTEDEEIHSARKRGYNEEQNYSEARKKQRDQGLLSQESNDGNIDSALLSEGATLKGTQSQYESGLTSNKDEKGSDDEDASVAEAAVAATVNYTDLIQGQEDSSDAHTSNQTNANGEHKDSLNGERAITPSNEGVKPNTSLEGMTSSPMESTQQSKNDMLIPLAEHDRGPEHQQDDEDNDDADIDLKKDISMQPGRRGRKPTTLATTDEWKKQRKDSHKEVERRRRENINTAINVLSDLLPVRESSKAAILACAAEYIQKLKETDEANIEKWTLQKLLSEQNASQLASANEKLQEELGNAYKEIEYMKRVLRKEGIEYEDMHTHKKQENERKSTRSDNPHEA
Notes: whole 60-bp probe, lowest competitor level
For `AAAGCGGTAATTTTTCACGTGTTCTCACATATCTAT`, the fluorescence intensity was 1660 a.u.
`ATAGCATCAACCGCACACATGATTAGGATGTAGACG` gave a fluorescence intensity of 262 a.u.
The fluorescence intensity of `CATCTTCAATATCCAGACGTGCAAAATGTTTCAATA` is reported as 101 a.u.
For `AGATGTAACCCAACCGTTGTGACGGTCCAAGGTACC`, the fluorescence intensity was 89 a.u.
`AGGGCGGGAATTTCACATGTGGCTTTTTGCATAATC` has a fluorescence intensity of 119 a.u.
The fluorescence intensity of `CAAGTGTTGTTGGTGCTCGTGGTAATGCAGCGACTT` is reported as 96.1 a.u.
The fluorescence intensity of `AAATTACTAAGTTGTTCTGTGGGTGACGCCGTATGA` is reported as 66.2 a.u.
The fluorescence intensity of `CATGAATGTGGTACCCACGTTCTGCGTTAGGACTGT` is reported as 87.8 a.u.
The fluorescence intensity of `TGCGCAACAACTTGACTTGTGGGTGTATGTCTAGAA` is reported as 77.2 a.u.
For `CGTCCTAGCGATTGAAAAGTGGGTGCCATGAGGAAG`, the fluorescence intensity was 73.2 a.u.
The fluorescence intensity of `AAGATGAGCTAAACTCTCGTGGATTAAATTTAAGCG` is reported as 106 a.u.
`CTTCTGTAAATTTGCTTCGTGGGTGGACGCGCCCCG` gave a fluorescence intensity of 85 a.u.
With `CCTGTTCTACATGTACTCGTGCTTTCTTTATTGCTT` the fluorescence intensity was 170 a.u.
`CTTAATTGCCGGCTCCTCGTGGTGAGATAAAATGAA` gave a fluorescence intensity of 99.1 a.u.
With `GTCTTGTCTCATTGTCACCGCACTTTCCCCACTTCA` the fluorescence intensity was 86.6 a.u.
For `CTAACGAAGGTTTAACACGTGTTTTACAAGCCAAGT`, the fluorescence intensity was 1670 a.u.
`CGGGGTTAAGTTTTTCACGTGGCATGCTTGCAGCAG` has a fluorescence intensity of 612 a.u.
`CAGAGTGGTTTATGTCAGGTGGTATTGCCTTGGATC` has a fluorescence intensity of 343 a.u.
`GTCTTGTCTCATTGGCGCGTGGGTGTCCCCACTTCA` gave a fluorescence intensity of 88.6 a.u.

Sample 2 — Sequence: B1 (RING1 RING domain); method: yeast two-hybrid; matrix: yeast; notes: mostly zero background; reference: not given; reading: higher = stronger interaction
B1: RING1 RING domain (UniProt Q06587); chain SPRSLHSELMCPICLDMLKNTMTTKECLHRFCSDCIVTALRSGNKECPTCRKKLVSKRSLR
The “lacZ reporter activity” was 0 (UBE2E1 UBC core domain (UniProt P51965)).
It gave 0 for “lacZ reporter activity” (UBE2D3 UBC core domain (UniProt P61077)).
The “lacZ reporter activity” was 0 (UBE2N UBC core domain (UniProt P61088)).
UBE2H UBC core domain (UniProt P62256) — “lacZ reporter activity”: 0.

Sample 3 — target: CCNB2, cyclin fold, Cln2 fusion (human); method: yeast growth competition, sequencing; matrix: yeast; notes: weak parent motif; reference: not given; reading: higher = stronger binding
Parent: ASZ1 docking peptide (human); GFGFLLFICKLTF; partner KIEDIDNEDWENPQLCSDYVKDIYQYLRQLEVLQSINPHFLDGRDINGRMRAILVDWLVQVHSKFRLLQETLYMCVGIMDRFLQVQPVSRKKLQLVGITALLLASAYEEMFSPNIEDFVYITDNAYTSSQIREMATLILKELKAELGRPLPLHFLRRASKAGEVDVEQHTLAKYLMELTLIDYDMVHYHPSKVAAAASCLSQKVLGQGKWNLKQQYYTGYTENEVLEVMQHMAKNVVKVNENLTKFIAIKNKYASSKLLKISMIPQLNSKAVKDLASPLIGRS
Under “normalised enrichment score”, `F13A` is recorded as 0.415.
For `L11A`, “normalised enrichment score” read 0.544.
For `K10A`, “normalised enrichment score” read 0.589.
`T12A` — result for “normalised enrichment score”: 0.0846.
`F7A` — result for “normalised enrichment score”: 0.0717.
`L6A`: “normalised enrichment score” -0.178.

Sample 4 — method: RNA Bind-n-Seq; molecule type: RNA; matrix: in vitro; concentration: 365 nM; reference: no-protein control; reading: higher = stronger binding
Target: RNA binding protein fox-1 homolog 2, RRM domain, GST-SBP tag (RBFOX2, Homo sapiens, UniProt O43251-10, residues 100-194)
Notes: natural RNA segment, single round, ends assumed
Constant ends, left off below: GGGAGUUCUACAGUCCGACGAUC … UGGAAUUCUCGGGUGCCAA
Construct (chain): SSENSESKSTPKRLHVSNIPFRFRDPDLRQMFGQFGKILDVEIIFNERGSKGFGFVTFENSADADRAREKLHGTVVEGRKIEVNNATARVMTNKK
`GGCUACAGCCCUGCUGCUGCUCCCUUCCUUCUUCUGUCCUGUUUCCAGCCUUGCAAGAAGGCUAUUCACAAUUAGGCCUGGCUGCUUCUCUCAUUUUUUUCCUCCCAGUU`: “RBNS enrichment (R)” 1.31.
Under “RBNS enrichment (R)”, `CAGAAGGGGUUUGGUCUGGGACUUCCUUGCUCUCCCUCUUCUCAAGUGCCUUAAUAGUAGGGUAAGUUGUUAAGAGUGGGGGAGAGCAGGCUGGCAGCUCUCCAGUCAGG` is recorded as 0.397.
Under “RBNS enrichment (R)”, `UCAGUAAUGCCUGCCAGCAGCACCUUUAAUUUCAGCUGGUGGCCUGUGAUGGGUUCUGUUUACCUUUUGCAACAUUUUAUAGCUUGUUUAGUGACUAGUGUGUAGUGAGU` is recorded as 0.858.
Under “RBNS enrichment (R)”, `UACGUGGUUUUUAGGUAGAUGUUCCCAGGUGCCCUCUCUUGAGCUGGGUCUGAGGUUAUCCCUGUCCCCAUGCCCCCUCUGUGCCCCGAGCUCUGUCUCCCCACUCUUGC` is recorded as 0.64.
Under “RBNS enrichment (R)”, `GGGGUAGGGCAGCCUAGCUCUUUUUGUCACCUUGCCCCGAGCCCUCUUCAGUCUUCCUGUUCACCCCUCCUCCACUCCCUUUAACCGCAAAACUAGGUGCUGUGGCCCCA` is recorded as 0.948.
`AUGGAUAAACAGAAACACUUAGAGGUGAGAAGGUCUGUCUUCAAGAUCCAAGGUAAGAUUGCCUUCAGUCUGAUGUUUGUUCUCAAGGACUUAUCCCCUACAAUAUUCUC`: “RBNS enrichment (R)” 0.37.
`GGAUGCUUUUUUUCCAGGACAGAUAGGUUCUGGAUCUCAGGGGUGAGAUAGGGGGCAGCCUUCAAUGGCAGCUCAUACUUCACCUUCCCCAGACUUGCACUGGGGUAGGA`: “RBNS enrichment (R)” 0.276.
For `GAGAGCAGUUGUGGUGUUUGUAUACCUUGUGCCUUAUGAUCAAGGUGGGCCUUGGAGGAGGGCGGGAAAGGAGCGACCAACAUGGCGGUCCUCCACCCCUCAGCGACACC`, “RBNS enrichment (R)” read 0.603.

Sample 5 — method: DHFR PCA, deep sequencing; matrix: yeast; added: (+)-ABA 2500 µM; reference: wild-type fitted maximum; reading: higher = stronger binding
Target: ABI1, truncated, D143A, DHFR fusion (Arabidopsis thaliana)
Notes: methotrexate growth selection, single substitutions
Parent: PYL1, truncated, DHFR fusion (Arabidopsis thaliana); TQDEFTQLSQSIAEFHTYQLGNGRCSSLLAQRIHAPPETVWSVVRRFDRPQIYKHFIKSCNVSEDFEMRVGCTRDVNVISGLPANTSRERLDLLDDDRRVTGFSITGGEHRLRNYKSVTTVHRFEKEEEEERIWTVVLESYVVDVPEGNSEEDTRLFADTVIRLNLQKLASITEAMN
For `I133T`, “relative binding score” read 103%.
`E89A` — result for “relative binding score”: 23.1%.
Under “relative binding score”, `Q7V` is recorded as 104%.
For `D3H`, “relative binding score” read 87.7%.
`E147L` — result for “relative binding score”: 93.3%.
For `D3A`, “relative binding score” read 101%.
`V137Q`: “relative binding score” 4.96%.
Under “relative binding score”, `I105T` is recorded as 87.4%.
Under “relative binding score”, `R69G` is recorded as 92.8%.
For `S26C`, “relative binding score” read 99.8%.
`W134A` — result for “relative binding score”: 100%.
`S9W`: “relative binding score” 87.7%.
`R24A`: “relative binding score” 91.9%.
Under “relative binding score”, `T119I` is recorded as 100%.
`H122L`: “relative binding score” 86.4%.
For `E147I`, “relative binding score” read 95.7%.
`S63D`: “relative binding score” 99.4%.
For `L28A`, “relative binding score” read 82.8%.
`T6E` — result for “relative binding score”: 108%.
`E152Y` — result for “relative binding score”: 91.3%.
For `S117E`, “relative binding score” read 57%.
Under “relative binding score”, `H34W` is recorded as 98.1%.
For `V143I`, “relative binding score” read 79.2%.
`D48F` — result for “relative binding score”: 63.9%.
`K126R` — result for “relative binding score”: 105%.

Excerpt of the above (sample 4):
For `GAGAGCAGUUGUGGUGUUUGUAUACCUUGUGCCUUAUGAUCAAGGUGGGCCUUGGAGGAGGGCGGGAAAGGAGCGACCAACAUGGCGGUCCUCCACCCCUCAGCGACACC`, “RBNS enrichment (R)” read 0.603.
Under “RBNS enrichment (R)”, `GGGGUAGGGCAGCCUAGCUCUUUUUGUCACCUUGCCCCGAGCCCUCUUCAGUCUUCCUGUUCACCCCUCCUCCACUCCCUUUAACCGCAAAACUAGGUGCUGUGGCCCCA` is recorded as 0.948.
`GGAUGCUUUUUUUCCAGGACAGAUAGGUUCUGGAUCUCAGGGGUGAGAUAGGGGGCAGCCUUCAAUGGCAGCUCAUACUUCACCUUCCCCAGACUUGCACUGGGGUAGGA`: “RBNS enrichment (R)” 0.276.
`GGCUACAGCCCUGCUGCUGCUCCCUUCCUUCUUCUGUCCUGUUUCCAGCCUUGCAAGAAGGCUAUUCACAAUUAGGCCUGGCUGCUUCUCUCAUUUUUUUCCUCCCAGUU`: “RBNS enrichment (R)” 1.31.
